Measurements from different studies.
Every numbered part comes from another study and shows a few of its results, in no order. Changes are numbered by the printed parent chain.

Study 1
Target: CCNA1, cyclin fold, Cln2 fusion (human)
Method: yeast growth competition, sequencing
Sample: yeast
Setting: weak parent motif
Relative to: not given
Reading: higher = stronger binding
Starting sequence: viral docking peptide; PTARRRLLHDLDT
Change | normalised enrichment score
PTARKRLFHDLDT [R5K L8F] | 1.22
PTARRRLLHDLDA [T13A] | 0.42
PTARRRLLFDLDT [H9F] | 1.36
PTARRALLHDLDT [R6A] | 0.527
PTARAAAAHDLDT [R5A R6A L7A L8A] | 0.144
PTARRRLLADLDT [H9A] | 0.625
PAARRRLLHDLDT [T2A] | 0.162
PTARRRALHDLDT [L7A] | 0.154
PTARKRLLHDLDT [R5K] | 0.423
PTARARLLHDLDT [R5A] | 0.376

Study 2
Target: Sox-I, HMG box (Salpingoeca helianthica)
Method: Spec-seq
Form: double-stranded DNA, one strand shown
Sample: in vitro
Tested at: not given
Setting: whole probe, mean of replicates
Relative to: not given
Reading: lower = stronger binding
Shared flanks, not repeated: GAGTCGTCTCGTCAGCAC … CCGTAGAGCACTCAGGTC
Target sequence (chain): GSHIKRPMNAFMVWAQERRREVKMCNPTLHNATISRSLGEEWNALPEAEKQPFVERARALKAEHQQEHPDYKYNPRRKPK
Sequence | relative binding energy [ln ratio]
GAGTGTT | 0.523
AATCGTT | -1.83
TTTTGTT | -2.18
CATAGTT | 0.0591
GGGCGTT | 1.19
AGAAGTT | 0.135
CATCGTA | 0.985
CCCAGTT | -0.0138

Study 3
Target: RING finger protein unkempt homolog, zinc fingers 1-6, GST-SBP tag (UNK, Homo sapiens, UniProt Q9C0B0, residues 30-357)
Sequence of UniProt Q9C0B0 (30-357, looked up): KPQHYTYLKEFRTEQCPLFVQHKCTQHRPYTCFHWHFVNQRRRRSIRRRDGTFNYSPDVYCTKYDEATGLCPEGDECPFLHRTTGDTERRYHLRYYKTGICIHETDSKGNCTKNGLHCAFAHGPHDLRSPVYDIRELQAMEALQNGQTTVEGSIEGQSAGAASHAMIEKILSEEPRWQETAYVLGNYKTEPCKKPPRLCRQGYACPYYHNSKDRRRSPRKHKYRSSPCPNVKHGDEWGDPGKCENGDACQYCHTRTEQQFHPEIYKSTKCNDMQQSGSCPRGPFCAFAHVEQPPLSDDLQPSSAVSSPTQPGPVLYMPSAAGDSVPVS
Method: RNA Bind-n-Seq
Form: RNA
Sample: in vitro
Tested at: not given
Setting: RNA with constant flanks, human-mouse chimeric sites, ends assumed
Relative to: input RNA pool
Reading: higher = stronger binding
Shared flanks, not repeated: GGGAGUUCUACAGUCCGACGAUC … CAACAGAGGAUUGAGCAUCA
Sequence | bound/input enrichment
UUUGUAUUUAUGCUAAGCACACGUGCUGGUGGUCUUGGCAUCAAUCUUGCAACUGCUGAUGUAGUCAUUUUAUAUGAUUCUGAUUGGAAUCCGCAAGUUGAUCUUCAGGCUAUGGACCGU | 0.232 ratio
CUAAUCCCCUUUACUGCUCCCCCACUUCUCAUGGUAAUAACAAAGUCUUAUAUCCCCGUCCUAGCUUUCACUCAGAUGGCUUAUGGAGCCGGUUUCCUAGCUUUCUUGGGUGGGAUCAGA | 0.31 ratio
CUCAGAGAUGUGGCAUAUCAAUAUGUGAAAAAGGGGGCUCGUAUAUUUGUGGAAGGGAAAAUAGACUAUGGCGAGUACAUGGAUAAAAACAAUGUGAGGCGGCAAGCAACAACAAUCAUA | 0.497 ratio
UCCUGGUCGUGUCCCAGUGCAGGACGAUGUGAACAAAAACUCAAAGCGGACCCUCUAUUGUAGUUCUUUUUUUAAAUAAUGUGCUAUUAUUGUUUGUCUUUUUUUUUUUUUUUUUAAAGA | 7.35 ratio
UUUCUACUGCAGCAAACGAUGCUAAGAAUUAAGGAUCCUAAGAAGUCCCUGGAUUUUUAUACUAGAGUUCUUGGACUGACCCUCCUGCAAAAAUGUGACUUCCCUGCUAUGAAGUUCUCG | 0.351 ratio
UGGCGCCUGCGCUCCCCGUUUUUAAAUUUAAGUGUAUUUUUAUAAGAUACAUGUAUUUACAAUUGAGCUUUUGUUACAUAAUGCUGAAAUGCUACUGGAGAUUAUGAAAAAUGUUUCAAU | 0.335 ratio
UUACUUUUGACUCCCUGGGUCAAGUUCCUGUGGGAAUCAUACAGGCAGUGUUUGGACCUUCUUCGAAACAAUUCUAGAGUAGAGCGCCUUUACCAUGAUAUCGCCCAACAAGCUUUCAAA | 0.151 ratio
AUCAAAUAUUUUGGGGACAUCAUUAGUGUGGGACAGAGACUGUUGCAAGGAGCUCGGAUCUUAGGGAUUCCAGUUAUUGUAACAGAACAAUACCCCAAAGGACUUGGCAGCACCGUUCAA | 0.177 ratio

Study 4
Target: Centromere-binding protein 1, full length, His-tagged (CBF1, Saccharomyces cerevisiae, UniProt P17106, residues 1-351)
Sequence of UniProt P17106 (whole entry, looked up): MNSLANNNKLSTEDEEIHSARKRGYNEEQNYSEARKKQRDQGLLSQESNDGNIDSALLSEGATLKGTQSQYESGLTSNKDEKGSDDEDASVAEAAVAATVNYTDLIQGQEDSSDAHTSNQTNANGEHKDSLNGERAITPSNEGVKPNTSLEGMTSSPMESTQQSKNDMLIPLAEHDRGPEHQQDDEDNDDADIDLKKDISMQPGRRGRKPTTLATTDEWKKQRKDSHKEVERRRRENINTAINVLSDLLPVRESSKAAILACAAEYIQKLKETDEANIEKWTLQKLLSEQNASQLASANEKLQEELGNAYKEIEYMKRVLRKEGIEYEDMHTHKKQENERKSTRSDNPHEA
Method: competition protein-binding microarray
Form: double-stranded DNA, one strand shown
Sample: in vitro
Tested at: 2 µM
Setting: whole 60-bp probe, lowest competitor level
Added: Pho4 competitor, 0.05 µM
Reading: higher = stronger binding
Shared flanks, not repeated: … GTCTTGATTCGCTTGACGCTGCTG
Sequence | fluorescence intensity [a.u.]
GGAAATAACGCTCGAGGCGTGCTTTGTCCTTTTTTG | 78.3
CTGCTTCACAGTTTGCACGTAACTTGCTGAGGGGCC | 80.2
CTAACGAAGGTTTGCTCTGTGGGTGACAAGCCAAGT | 69.3
CTTCTGTAAATTTGAAAAGTGGGTGGACGCGCCCCG | 101
CGTCTAGCAATACCGCACATGTTATTTGTGCTGTAG | 137
TCACTACGCACAAACCATGTGGATGCCCAATCTGTA | 83.3
CATACCCAACCTTGTCACGTAACTTAAGATATTTGT | 134
CGTCCTAGTGATTGCTGCGTGGGTGCCATGAGGAAG | 84.1

Excerpt of the above (study 3):
Sequence | bound/input enrichment
UUUCUACUGCAGCAAACGAUGCUAAGAAUUAAGGAUCCUAAGAAGUCCCUGGAUUUUUAUACUAGAGUUCUUGGACUGACCCUCCUGCAAAAAUGUGACUUCCCUGCUAUGAAGUUCUCG | 0.351 ratio
UGGCGCCUGCGCUCCCCGUUUUUAAAUUUAAGUGUAUUUUUAUAAGAUACAUGUAUUUACAAUUGAGCUUUUGUUACAUAAUGCUGAAAUGCUACUGGAGAUUAUGAAAAAUGUUUCAAU | 0.335 ratio
